Results collected from several papers.
A part holds a random share of what one study measured.

Set 1
Target: Sal-like protein 4, full length isoform A (SALL4, Homo sapiens, UniProt Q9UJQ4, residues 1-1053)
Chain of UniProt Q9UJQ4 (whole entry, looked up): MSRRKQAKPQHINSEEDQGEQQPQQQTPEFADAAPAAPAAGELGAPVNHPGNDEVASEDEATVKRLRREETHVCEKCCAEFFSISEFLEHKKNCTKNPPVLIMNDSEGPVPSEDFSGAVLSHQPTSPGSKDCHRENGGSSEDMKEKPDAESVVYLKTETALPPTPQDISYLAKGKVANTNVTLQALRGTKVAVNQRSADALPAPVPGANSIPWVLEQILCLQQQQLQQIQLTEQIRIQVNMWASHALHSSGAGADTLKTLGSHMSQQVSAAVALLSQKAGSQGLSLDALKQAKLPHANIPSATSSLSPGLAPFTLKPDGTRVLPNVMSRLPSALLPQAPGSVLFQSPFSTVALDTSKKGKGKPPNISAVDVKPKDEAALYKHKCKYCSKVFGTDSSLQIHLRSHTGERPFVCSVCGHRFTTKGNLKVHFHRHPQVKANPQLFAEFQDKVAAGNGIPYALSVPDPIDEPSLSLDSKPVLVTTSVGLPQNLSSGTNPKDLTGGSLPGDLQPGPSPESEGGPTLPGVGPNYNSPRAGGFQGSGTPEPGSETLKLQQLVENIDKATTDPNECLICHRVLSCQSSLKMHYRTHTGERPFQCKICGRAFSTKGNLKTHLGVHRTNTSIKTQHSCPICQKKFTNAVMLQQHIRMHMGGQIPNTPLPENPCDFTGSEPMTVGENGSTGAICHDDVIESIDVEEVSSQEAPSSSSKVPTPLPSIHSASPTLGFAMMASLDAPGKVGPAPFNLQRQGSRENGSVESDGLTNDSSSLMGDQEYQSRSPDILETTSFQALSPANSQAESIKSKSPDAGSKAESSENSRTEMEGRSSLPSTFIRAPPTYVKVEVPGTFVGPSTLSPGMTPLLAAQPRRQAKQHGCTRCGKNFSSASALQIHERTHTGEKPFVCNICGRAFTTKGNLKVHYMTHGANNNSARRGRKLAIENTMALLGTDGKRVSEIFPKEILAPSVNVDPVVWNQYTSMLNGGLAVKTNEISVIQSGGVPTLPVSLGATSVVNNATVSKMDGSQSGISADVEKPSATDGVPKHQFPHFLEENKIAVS
Technique: universal PBM
Molecule type: double-stranded DNA, one strand shown
Medium: in vitro
Tested at: 600 nM
Notes: 8-mer, flanks averaged, mean of replicates
Direction: higher = stronger binding
Endpoint: E-score
GAAGTGAA: 0.112
GTTACCGA: -0.145
GGTGAGAC: -0.186
AAATCATT: 0.301
GTATGTTA: 0.257
GACCTAGA: -0.108
CGCTCTTC: -0.0923
GATGGACA: -0.0438
ACGCCGAA: -0.195
CCCACAAG: -0.227
ATATGAAA: 0.417
CACTGCTA: 0.0588
TATCTTAA: 0.296
GCCCCACC: -0.24
AGCCTCAT: 0.0257
GATCCAAC: -0.115
ACTGCCTA: 0.0117
ACCTAAGA: 0.0499
CCATGTCA: -0.0382
CTCTGAGC: -0.219
AGGGTTAC: -0.173
CTGCTGCC: -0.227
ACGGTACA: 0.0105
GTACTTGA: 0.0668
CACTTCCG: -0.121

Set 2
Substance: PhoQ, residues 284 288 289 292 302 303 TVTVVA
Technique: Sort-seq
Measured: YFP reporter
Medium: E. coli
Notes: PhoQ-PhoP variant library
Together with: 10 µM Mg2+
Relative to: high Mg2+ state
Direction: higher = stronger signaling
Endpoint: fold induction
PhoP, residues 12 14 15 18 19 NFFVT (Escherichia coli, UniProt P23836): 9.68
PhoP, residues 12 14 15 18 19 LHHYF (Escherichia coli, UniProt P23836): 7.33
PhoP, residues 12 14 15 18 19 TPWTL (Escherichia coli, UniProt P23836): 3.8
PhoP, residues 12 14 15 18 19 VGHWL (Escherichia coli, UniProt P23836): 6.03

Set 3
Target: Centromere-binding protein 1, full length, His-tagged (CBF1, Saccharomyces cerevisiae, UniProt P17106, residues 1-351)
Chain of UniProt P17106 (whole entry, looked up): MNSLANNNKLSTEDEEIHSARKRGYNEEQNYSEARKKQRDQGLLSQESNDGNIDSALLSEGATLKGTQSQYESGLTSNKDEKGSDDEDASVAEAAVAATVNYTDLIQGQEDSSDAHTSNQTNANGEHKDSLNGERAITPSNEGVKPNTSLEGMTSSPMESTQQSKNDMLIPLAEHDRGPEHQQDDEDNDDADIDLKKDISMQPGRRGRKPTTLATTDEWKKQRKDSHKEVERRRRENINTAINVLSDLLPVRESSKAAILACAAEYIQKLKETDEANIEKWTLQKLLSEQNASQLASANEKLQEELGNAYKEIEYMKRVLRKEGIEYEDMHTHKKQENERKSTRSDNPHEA
Technique: competition protein-binding microarray
Molecule type: double-stranded DNA, one strand shown
Medium: in vitro
Tested at: 2 µM
Notes: whole 60-bp probe, lowest competitor level
Together with: Pho4 competitor, 0.05 µM
Direction: higher = stronger binding
Endpoint: fluorescence intensity
All sequences stand within: … GTCTTGATTCGCTTGACGCTGCTG
GGAGTCAACGCTTTGCACGTGACGGCGGTACATAGT: 4660 a.u.
TTTTTCTCTTGCCGTCACATGATCGCAAAATGGCAA: 4870 a.u.
AACCGTAACGCTGATAACGTGGATTAGATCTTGGAG: 90.3 a.u.
AGAAGAGGCATATCGCACGTTTTACCGGGTCAGAAA: 73 a.u.
CATACCCAACCTTGCTTTGTGGGTGAAGATATTTGT: 59.6 a.u.
CCGAGGTTTGTTGGGTACGTGCAAAAGCGCCTGGGC: 61.8 a.u.
AGCCAGCATTGTTGTCATGCGAGATGTCTAAGAAAA: 73.8 a.u.
CGGACGCCCACTCCTCACGGGAATAAGTTAGAATGT: 93.4 a.u.
CATACCCAACCTTGATGGGTGGGTGAAGATATTTGT: 67 a.u.
TTTTACTGCAGAAAGCACGTGGAGGATCTGCTTCAT: 1290 a.u.
GACAGTCTTAGTGTAGACGTGACGGTTCTTGGTGGC: 89.3 a.u.
GAACTGCCACCTCACCACGTGTGTTCCTCGCAAGCC: 608 a.u.
AAGAATCTAAGCCAACACGCACAATAGACTCGAATG: 79.1 a.u.
AACACCTTCCGACGGCGCGTGTTGGCAAAGCTGGGT: 65.7 a.u.
CTAACGAAGGTTTCCCACGTGTTTTACAAGCCAAGT: 832 a.u.
CCTCACCCTAGTGAGCATGTGCCCAGGGCTGGGTCA: 144 a.u.
AAATTACTAAGTTGAGGTGTGGGTGACGCCGTATGA: 75.7 a.u.
TGCCGTCGATGAGGACACGTTCAGATATGCCAAACA: 73.7 a.u.
TGCGCAACAACTTGTCACATCACTTTATGTCTAGAA: 87.6 a.u.

Set 4
Target: Fragile X messenger ribonucleoprotein 1, C-terminal low-complexity region (Fmr1, Mus musculus, UniProt P35922)
Technique: RNA Bind-n-Seq
Molecule type: RNA
Medium: in vitro
Tested at: 200 nM
Notes: whole 134-nt RNA, ends assumed
Together with: 150 mM LiCl
Relative to: input library
Direction: higher = stronger binding
Endpoint: log2 enrichment
All molecules: 7-deaza-guanosine replaces G
All sequences stand within: GGGAGUUCUACAGUCCGACGAUC … UGGAAUUCUCGGGUGUCAAGG
GUCCUGUGCUACACAUCGUAUGUACCGAAUCGGGGUUUUUGGGUUUUUGGUUUUUGGGAAAGUAUUAUGUUACGCCGUUCGGAUCUGCAC: -1.47
AGUCCUGUGCUACACAUCGUAUGUACCGAAUCGGGAAAAAGGGUGGGAAAAAAAGGGAAAGUAUUAUGUUACGCCGUUCGGAUCUGCACU: -1.36
UUUACCCCUCACUGGAGUCAGAUGAAGACAACCCCAUCUUUAAGUCCCGGUCGAAGAAAAGGAAAGGCUCAGACGACGCUCCCUACAGCC: -0.89
ACCAUGCAGGUGGGCAUCUUUGGGAAGUGGGGCAAGGGGGGGAUAGGGGGGGGGGUAACACUUUGGGAACAGGUGGUCCCAGGUCGUUUC: 1.46
ACCAUGCAGGUGGGCAUCAUUGGGAAGUGGGGCAAGGGGGGGAUAGGGAGGGGGGUAACACUUUGGGAACAGGUGGUCCCAGGUCGUUUC: 1.31
UGGGAGGUGGAUUUUGUUUAUUUUUUUAGCUCAUUCCCAGGGGUGGGAAUUUUUUUUUAAUAUGUGUCAUGAAUAAAGUUGUUUUUGAAA: -0.166
UAACUAUAGAGGAGGAUCUGAUGGAUAUGGCAGUGGACGUGGAUUUGGGGAUGGCUAUAAUGGGUAUGGAGGAGGACCUGGAGGUGGCAA: 0.177
CUGUGCUACACAUCGUAUGUACCGAAUCGGGGCCCCCCGGGGCCCCCCGGGCCCCCCGGGGAAAGUAUUAUGUUACGCCGUUCGGAUCUG: -2.64

Repeated from above (set 3):
TTTTTCTCTTGCCGTCACATGATCGCAAAATGGCAA: 4870 a.u.
AACCGTAACGCTGATAACGTGGATTAGATCTTGGAG: 90.3 a.u.
CGGACGCCCACTCCTCACGGGAATAAGTTAGAATGT: 93.4 a.u.
CATACCCAACCTTGCTTTGTGGGTGAAGATATTTGT: 59.6 a.u.
CTAACGAAGGTTTCCCACGTGTTTTACAAGCCAAGT: 832 a.u.
